# Assay results pooled from the literature.
# Compare with care: the assays were run in different laboratories.
# UniProt P11388, sequence (whole entry, looked up): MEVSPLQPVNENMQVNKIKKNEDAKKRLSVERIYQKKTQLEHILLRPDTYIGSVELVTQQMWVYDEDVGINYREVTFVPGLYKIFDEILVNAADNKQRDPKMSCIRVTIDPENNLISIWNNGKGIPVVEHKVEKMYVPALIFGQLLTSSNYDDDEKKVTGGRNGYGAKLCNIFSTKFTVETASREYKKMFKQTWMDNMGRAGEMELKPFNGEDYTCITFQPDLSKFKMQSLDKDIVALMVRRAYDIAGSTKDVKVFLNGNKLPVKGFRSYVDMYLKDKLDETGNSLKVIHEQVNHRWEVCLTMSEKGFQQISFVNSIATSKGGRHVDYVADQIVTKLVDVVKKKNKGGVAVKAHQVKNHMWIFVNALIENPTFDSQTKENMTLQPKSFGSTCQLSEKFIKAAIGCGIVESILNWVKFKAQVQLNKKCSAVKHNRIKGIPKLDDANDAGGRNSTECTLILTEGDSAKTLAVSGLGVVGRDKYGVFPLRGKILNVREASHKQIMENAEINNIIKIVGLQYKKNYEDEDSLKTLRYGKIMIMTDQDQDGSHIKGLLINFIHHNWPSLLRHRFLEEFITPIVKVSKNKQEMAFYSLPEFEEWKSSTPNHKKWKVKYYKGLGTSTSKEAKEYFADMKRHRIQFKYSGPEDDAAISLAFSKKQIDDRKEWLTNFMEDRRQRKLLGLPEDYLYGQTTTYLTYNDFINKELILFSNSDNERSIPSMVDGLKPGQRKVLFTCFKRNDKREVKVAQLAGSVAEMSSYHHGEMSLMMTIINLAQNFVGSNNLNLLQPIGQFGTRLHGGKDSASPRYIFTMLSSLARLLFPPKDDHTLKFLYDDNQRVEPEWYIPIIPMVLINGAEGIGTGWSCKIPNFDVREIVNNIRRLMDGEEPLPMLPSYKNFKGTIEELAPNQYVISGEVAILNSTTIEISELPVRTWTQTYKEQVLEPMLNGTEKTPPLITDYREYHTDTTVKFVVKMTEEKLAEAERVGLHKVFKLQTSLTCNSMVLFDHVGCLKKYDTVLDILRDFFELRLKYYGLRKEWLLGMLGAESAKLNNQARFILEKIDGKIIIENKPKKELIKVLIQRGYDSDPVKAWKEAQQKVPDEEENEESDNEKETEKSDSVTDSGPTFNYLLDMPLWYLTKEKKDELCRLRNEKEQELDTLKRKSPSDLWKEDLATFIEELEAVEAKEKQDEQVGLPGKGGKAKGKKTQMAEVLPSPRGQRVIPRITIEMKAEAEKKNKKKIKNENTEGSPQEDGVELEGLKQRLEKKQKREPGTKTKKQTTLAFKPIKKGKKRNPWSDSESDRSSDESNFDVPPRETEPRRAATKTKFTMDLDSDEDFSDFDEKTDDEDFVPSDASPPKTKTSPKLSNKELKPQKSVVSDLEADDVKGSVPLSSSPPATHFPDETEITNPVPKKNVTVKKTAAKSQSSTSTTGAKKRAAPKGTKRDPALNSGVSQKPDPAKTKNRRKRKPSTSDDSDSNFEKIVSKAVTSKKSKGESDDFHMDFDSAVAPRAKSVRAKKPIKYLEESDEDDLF
Structure (SMILES),tested on,test,system,conditions,how to read,measurement,result
COc1ccc([C@@H](O)c2cc(-c3ncnc4cc(N5CCOCC5)ccc34)c(F)cc2Cl)nn1,,,locally advanced rectal cancer patients,"50 mg, added: capecitabine and radiotherapy",,injury poisoning procedural TEAE,100%
Cc1cc(-c2nccc3c2ccn3CC(=O)Nc2ccc(-c3cnccn3)cn2)ccn1,,,healthy human volunteers,"oral, 15 mg once daily, 14 days, multiple ascending dose",,injury or procedural TEAEs,11.1%
COC(=O)Nc1c(N)nc(-c2nn(Cc3ccccc3F)c3ncc(F)cc23)nc1N,,,healthy men,"oral, dose not given, multiple dose, added: sildenafil 25 mg",reference: with over without sildenafil,AUC ratio,1
O=C(Nc1nc2cccc(-c3ccc(CN4CCS(=O)(=O)CC4)cc3)n2n1)C1CC1,,item: injury or procedural complication,rheumatoid arthritis patients,"oral, 300 mg once daily, 4 weeks, any relatedness",,patients with adverse event,5%
CC1COc2ccccc2N1C(=O)C(Cl)Cl (stereo not shown),,carboxylesterase hydrolysis,"rhesus monkey, female, liver cytosol","5 µM, 30 min, pH 7.4, without GSH",,enantiomeric fraction,0.4
COC(=O)Nc1c(N)nc(-c2nn(Cc3ccccc3F)c3ncc(F)cc23)nc1N,,,"humans, plasma","10 mg, phase I DDI study, alone",,AUC,6120 ng·h/mL
Fc1ccccc1Cc1nc(-c2nc(C(F)(F)F)n[nH]2)cn2ccnc12,,item: Dizziness,healthy humans,"oral, 10 mg, fasted, single dose",,subjects with adverse events,7.1%
CCn1c(=O)c(-c2cc(NC(=O)Nc3ccccc3)c(F)cc2Br)cc2cnc(NC)cc21,,item: injury and poisoning,moderate hepatic impairment,50 mg single dose,,patients with grade 3+ TEAE,12.5%
CO/N=C(\C(=O)N[C@@H]1C(=O)N2C(C(=O)O)=C(COC(C)=O)CS[C@H]12)c1csc(N)n1,Pseudomonas aeruginosa,,clinical isolate RKI-No_612/16,,,MIC,16 µg/mL
N#CCC1CCN(c2nc(Nc3ccc(N4CCC(O)CC4)cc3)c3c(=O)[nH]ncc3n2)CC1,,"Olink multiplex, item: CD163","human, serum","80 mg, day 15, unit not given",reference: placebo,serum level change,-1.34
COc1cc([C@@H]2c3cc4c(cc3[C@@H](O[C@@H]3O[C@@H]5CO[C@@H](C)O[C@H]5[C@H](O)[C@H]3O)[C@H]3COC(=O)[C@H]23)OCO4)cc(OC)c1O,"TOP2A (Homo sapiens, UniProt P11388)",DNA cleavage,,"12.5 µM, replicate 2",,linear DNA,13.8%
CC(C)(C(=O)N1CCOc2c(C#N)cncc2C1)C(F)F,,"item: injury, poisoning, procedural complications",human,"oral, 15 mg twice daily, 14 days, multiple ascending dose",,subjects with adverse event,0%
Cc1c(S(=O)(=O)N2CCc3n[nH]cc3C2)cc(C(=O)NCc2c(F)ccc3cnn(C)c23)n1C,"Replicase polyprotein 1ab, nsp14 (rep, Severe acute respiratory syndrome coronavirus 2, UniProt P0DTD1)",inhibitor,,,,IC50,0.2 nM
